{"data": "Measurements gathered from unrelated publications", "GRM2": "Metabotropic glutamate receptor 2 (GRM2, Homo sapiens, UniProt Q14416)", "CDK2 with cyclin A": "Cyclin-dependent kinase 2, with cyclin A (CDK2, Homo sapiens, UniProt P24941)", "note": "Numbers after ± are the reported error.", "chain of UniProt Q14416 (whole entry, looked up)": "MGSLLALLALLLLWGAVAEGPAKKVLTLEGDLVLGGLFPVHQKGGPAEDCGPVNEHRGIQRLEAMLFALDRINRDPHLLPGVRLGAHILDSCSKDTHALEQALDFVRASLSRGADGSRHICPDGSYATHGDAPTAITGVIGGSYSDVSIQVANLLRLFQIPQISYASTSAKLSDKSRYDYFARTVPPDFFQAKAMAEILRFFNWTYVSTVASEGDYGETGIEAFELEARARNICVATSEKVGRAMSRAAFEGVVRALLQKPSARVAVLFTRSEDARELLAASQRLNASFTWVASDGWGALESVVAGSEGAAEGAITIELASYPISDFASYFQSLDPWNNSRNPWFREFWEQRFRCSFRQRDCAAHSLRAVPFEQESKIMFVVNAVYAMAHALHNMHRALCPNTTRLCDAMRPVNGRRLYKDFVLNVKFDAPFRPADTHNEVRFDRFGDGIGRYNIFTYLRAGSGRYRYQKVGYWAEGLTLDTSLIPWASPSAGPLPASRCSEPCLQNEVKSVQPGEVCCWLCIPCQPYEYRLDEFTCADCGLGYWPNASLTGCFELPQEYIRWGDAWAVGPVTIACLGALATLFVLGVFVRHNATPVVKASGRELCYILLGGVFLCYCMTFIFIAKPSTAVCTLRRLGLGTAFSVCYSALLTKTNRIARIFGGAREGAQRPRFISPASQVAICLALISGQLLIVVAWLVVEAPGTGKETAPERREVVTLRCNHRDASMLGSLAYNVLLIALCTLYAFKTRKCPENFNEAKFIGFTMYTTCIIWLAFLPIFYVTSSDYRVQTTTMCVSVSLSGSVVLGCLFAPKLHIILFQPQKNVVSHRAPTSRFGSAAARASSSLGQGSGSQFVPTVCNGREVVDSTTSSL"}
{"SMILES": "FC(F)(F)c1c(-c2ccc3c(ccn3-c3cccnc3)c2)ccn2c(CC3CC3)nnc12", "target or system": "GRM2", "test": "agonist", "conditions": "no glutamate", "quantity": "Emax", "value": "64%"}
{"SMILES": "O=C(O)COc1ccc(Br)cc1C=NNC(=O)Cc1ccccc1 (mixture of isomers)", "test": "measured: AST", "test system": "mouse, serum", "conditions": "oral, 100 mg/kg, 48 h, safety assessment", "quantity": "serum enzyme activity", "value": "36.4 ± 2.57 IU/L"}
{"SMILES": "Cc1cc(C#N)cnc1F", "target or system": "Cellular tumor antigen p53, DNA-binding domain (TP53, Homo sapiens, UniProt P04637, M133L/N239Y/N268D/V203A)", "test": "DSF", "conditions": "1 mM, up to 24 h", "quantity": "delta Tm", "value": "no effect"}
{"SMILES": "Cc1ccc(C)c(-c2ccc3nc(NC(=O)C4CCCCC4)nn3c2)c1", "target or system": "CDK2 with cyclin A", "test": "enzyme activity, inhibitor", "quantity": "IC50", "value": "> 100 µM"}
{"SMILES": "Oc1ccccc1C1=NN(c2ccccc2)C(c2ccccc2C(F)(F)F)C1 (centres unmarked)", "target or system": "HeLa", "test": "cell viability, MTT", "conditions": "72 h", "quantity": "EC50", "value": "> 500 µM"}
{"SMILES": "Cc1nc(C#N)cnc1Cl", "target or system": "Cellular tumor antigen p53, DNA-binding domain (TP53, Homo sapiens, UniProt P04637, M133L/N239Y/N268D/V203A/Y220C)", "test": "DSF", "conditions": "1000 µM, 24 h", "quantity": "delta Tm", "value": "4.98 °C"}
{"SMILES": "COc1cccc(-c2ccc3nc(NC(=O)C4CCCCC4)nn3c2)c1", "target or system": "CDK2 with cyclin A", "test": "enzyme activity, inhibitor", "quantity": "IC50", "value": "> 100 µM"}
{"SMILES": "Clc1c(-c2ccc(Oc3ccccc3)cc2)ccn2c(CC3CC3)nnc12", "target or system": "GRM2", "test": "agonist", "conditions": "no glutamate", "quantity": "EC50", "value": "0.24 µM"}
{"note": "A few entries again:"}
{"SMILES": "Cc1ccc(C)c(-c2ccc3nc(NC(=O)C4CCCCC4)nn3c2)c1", "target or system": "CDK2 with cyclin A", "test": "enzyme activity, inhibitor", "quantity": "IC50", "value": "> 100 µM"}
